# Experimental data of several laboratories.
# Protocols differ between the studies behind these lines. ± gives the spread as reported.
Molecule,organism,assay,test system,setting,IC50
C[C@]12CC[C@H](O)C[C@H]1CC[C@@H]1[C@@H]2CC[C@]2(C)[C@@H](C3=CC(=O)OC3)CC[C@]12O,transmissible gastroenteritis virus,"viral replication, immunofluorescence",ST cells,"6 h post-infection, pretreated 1 h",0.622 ± 0.057 µM
CCCCCOc1c(OC)cc(NC(C)CCCNC(=O)C(N)Cc2ccccc2)c2nc(C(C)(C)C)ccc12 (stereo not drawn),Staphylococcus aureus,microbial growth,ATCC33591 MRSA,drug-resistant strain,8.23 µg/mL
CO[C@H]1C[C@H](O[C@H]2CC[C@@]3(C)[C@H](CC[C@@H]4[C@@H]3CC[C@]3(C)[C@@H](C5=CC(=O)OC5)[C@@H](OC(C)=O)C[C@]43O)C2)O[C@@H](C)[C@@H]1O,transmissible gastroenteritis virus,"viral replication, immunofluorescence",ST cells,"6 h post-infection, pretreated 1 h",0.166 ± 0.008 µM
O=c1c(-c2ccc(O)cc2)coc2cc(O)ccc12,Human betaherpesvirus 5,"viral replication, absorbance",human Fibroblast,72 h,> 40 µM
CCCCCCCOc1c(OC)cc(NC(C)CCCNC(=O)C(N)Cc2ccccc2)c2nc(C(C)(C)C)ccc12 (stereo not drawn),Staphylococcus aureus,microbial growth,ATCC33591 MRSA,drug-resistant strain,4.33 µg/mL
Nc1nc2c(ncn2COCCO)c(=O)[nH]1,Human alphaherpesvirus 1,"viral replication, plaque reduction","HFFF, 17 thymidine kinase-deleted, GFP",3 days,73 ± 18 µM
CCCCCCCCOc1c(OC)cc(NC(C)CCCN)c2nc(C(C)(C)C)ccc12 (stereo not drawn),Staphylococcus aureus,microbial growth,ATCC33591 MRSA,drug-resistant strain,2.85 µg/mL
COc1cc(-c2oc3cc(O)cc(O)c3c(=O)c2O)ccc1O,Human immunodeficiency virus 1,viral replication,"TZM-bl, BAL",48 h,1.77 µM
O=C(O)[C@H]1O[C@@H](Oc2cc3oc(-c4ccc(O)cc4)cc(=O)c3c(O)c2O)[C@H](O)[C@@H](O)[C@@H]1O,Betacoronavirus 1,viral replication,"HRT-18, OC43",24 h,63.3 µM
c1ccc(Oc2ccc(Nc3c4c(nc5ccccc35)CCC4)cc2)cc1,Leishmania donovani,,"DD8 resistant line, intracellular amastigotes",,4.94 ± 0.69 µM
NC(=O)c1ncn([C@@H]2O[C@H](CO)[C@@H](O)[C@H]2O)n1,Norwalk virus,"viral replication, inhibitor",RAW264.7,,73.5 µM
C=C[C@]1(CO)O[C@@H](n2cnc3c(N)nc(N)nc32)C[C@@H]1O,Human immunodeficiency virus 1,"cytopathic effect, MTT",MT4,,0.0043 µM
CC[C@H](C)[C@H](NC(=O)[C@H]1O[C@@H](O[C@H]2[C@@H](O[C@H]3CC[C@]4(C)[C@H]5C(=O)C=C6[C@@H]7C[C@@](C)(C(=O)N[C@H](C(=O)O)[C@@H](C)CC)CC[C@]7(C)CC[C@@]6(C)[C@]5(C)CC[C@H]4C3(C)C)O[C@H](C(=O)N[C@H](C(=O)O)[C@@H](C)CC)[C@@H](O)[C@@H]2O)[C@H](O)[C@@H](O)[C@@H]1O)C(=O)O,Dengue virus,"viral replication, imaging","Vero C1008, DENV2",,1.2 to 1.3 µM
COc1ccc(CCN(C)CCCC(C#N)(c2ccc(OC)c(OC)c2)C(C)C)cc1OC (stereo not drawn),Plasmodium falciparum,"parasite proliferation, SYBR Green",3D7,72 h,3.8 µM
Fc1ccc(C2(Cn3cncn3)Cn3ccnc3O2)c(F)c1 (stereo not drawn),Trypanosoma cruzi,parasite growth,Tulahuen C4 amastigotes,,4 to 60 µM
C[C@@H]1CC[C@H]2[C@@H](C)C(=O)O[C@@H]3O[C@@]4(C)CC[C@@H]1[C@]32OO4,Leishmania tarentolae,"viability, resazurin","promastigotes, Schneider's medium","48 h, 26 °C, added: 10% FCS",23.2 ± 15.6 µM
CCCCCCCCCCOc1cc2c(O)c(C(=O)OCC)cnc2cc1OCC,Plasmodium falciparum,"parasite proliferation, SYBR Green",3D7,72 h,0.0043 µM
CC(C)C12C=CC(C)(CC1)OO2 (stereo not drawn),Leishmania tarentolae,"viability, resazurin","promastigotes, YEM/PBS","48 h, 26 °C, added: 10% FCS",25.2 ± 5.4 µM
CCCCCCCC(F)(P(=O)(O)O)P(=O)(O)O,Trypanosoma cruzi,,"Vero cells, intracellular amastigotes",day 3 post-infection,> 10 µM
O=C(O)[C@H]1O[C@@H](Oc2cc3oc(-c4ccccc4)cc(=O)c3c(O)c2O)[C@H](O)[C@@H](O)[C@@H]1O,Human betaherpesvirus 5,"viral replication, absorbance",human Fibroblast,72 h,3 µM
CCCCCCCCOc1c(OC)cc(NC(C)CCCNC(=O)C(N)Cc2cc3ccccc3[nH]2)c2nc(C(C)(C)C)ccc12 (stereo not drawn),Staphylococcus aureus,microbial growth,ATCC33591 MRSA,drug-resistant strain,8.31 µg/mL
Nc1nc(O)c2ncn(COC(CO)CO)c2n1,human cytomegalovirus,"viral replication, titre reduction","HEL fibroblasts, Towne",,2 ± 0.3 µM
CCCCCCCOc1c(OC)cc(NC(C)CCCNC(=O)C(N)CCCN)c2nc(C(C)(C)C)ccc12 (stereo not drawn),Staphylococcus aureus,bacterial growth,MRSA ATCC 33591,,> 20 µg/mL
meglumine antimoniate,Leishmania braziliensis,,,promastigotes,25.6 ± 1.7 µM
C#C[C@]1(CO)O[C@@H](n2cnc3c(N)nc(F)nc32)C[C@@H]1O,Human immunodeficiency virus 1,"cytopathic effect, MTT",MT4,,0.0003 µM
CCCCCCCCCCCCCCC[C@@H](O)C[N+](C)(C)CCO,Candida albicans,"biofilm formation, XTT",SC5314,"24 h, 37 °C",4.27 µM
CCCCCCOc1c(OC)cc(NC(C)CCCNC(=O)C(N)C(C)CC)c2nc(C(C)(C)C)ccc12 (stereo not drawn),Staphylococcus aureus,microbial growth,ATCC33591 MRSA,drug-resistant strain,10 µg/mL
Cc1cccc2c1C(=O)C(O)=C(CC(C)CCCCCC(F)(F)F)C2=O (stereo not drawn),Plasmodium berghei,"parasite growth, luciferase",Huh-7,"48 h, liver stage",4.45 µM
NCC(O)CN.Oc1c(Cl)c(Cl)c(Cl)c(Cl)c1Cl,Candida albicans,"biofilm formation, XTT",SC5314,"24 h, 37 °C",2.88 µM
CC(F)(P(=O)(O)O)P(=O)(O)O,Trypanosoma cruzi,,"Vero cells, intracellular amastigotes",day 3 post-infection,> 10 µM
O=Cc1cn(Cc2cccc(Cl)c2)c2ccc([N+](=O)[O-])cc12,Trypanosoma brucei gambiense,,"trypomastigotes, IL1922",,> 79 µM
O=C1C[C@@H](c2ccc(O)cc2)Oc2cc(O)cc(O)c21,human cytomegalovirus,"viral replication, titre reduction","HEL fibroblasts, Towne",,> 40 µM
CNC[C@H](O)[C@@H](O)[C@H](O)[C@H](O)CO.[O]=[Sb](=[O])[OH],Leishmania braziliensis,"amastigote growth, microscopic counting",MHOM/BZ/82/M2903,48 h,12.2 ± 2.12 µM
C#C[C@]1(CO)O[C@@H](n2cnc3c(=O)[nH]c(N)nc32)C[C@@H]1O,Human immunodeficiency virus 1,"cytopathic effect, MTT",MT4,,0.0016 µM
N#C[C@]1(CO)O[C@@H](n2cnc3c(=O)[nH]c(N)nc32)C[C@@H]1O,Hepatitis B virus,Southern blot,"Huh-7 transfected, entecavir-resistant L180M/S202G/M204V",,0.042 ± 0.034 µM
Nc1cc[c]([Hg][S]c2nc(N)nc3c2ncn3[C@@H]2O[C@H](CO)[C@@H](O)[C@H]2O)cc1,Candida albicans,"biofilm formation, XTT",SC5314,"24 h, 37 °C",1.94 µM
O=c1cc(-c2ccc(O)cc2)oc2cc(O)cc(O)c12,human cytomegalovirus,"viral replication, titre reduction","HEL fibroblasts, Towne",,6.4 µM
CCCCOc1c(OC)cc(NC(C)CCCNC(=O)C(N)CCCN)c2nc(C(C)(C)C)ccc12 (stereo not drawn),Staphylococcus aureus,bacterial growth,MRSA ATCC 33591,,> 20 µg/mL
CN(C)c1ccc(/C=c2/c3cc(O)ccc3n3c2cc(-c2ccccc2)[n+]3C)cc1,Candida albicans,"biofilm formation, XTT",SC5314,"24 h, 37 °C",2.24 µM
guanidine hydrochloride,coxsackievirus B3,cytopathic effect,"HeLa, 97927 I1207M",48 h,682 µM
O=c1cc(-c2ccc(O)c(O)c2)oc2cc(O)cc(O)c12,human cytomegalovirus,"viral replication, titre reduction","HEL fibroblasts, Towne",,3.6 ± 0.7 µM
nanaomycin,Candida albicans,"biofilm formation, XTT",SC5314,"24 h, 37 °C",0.609 µM
Nc1nc(N)nc(NC2CC2)n1,Lucilia cuprina,larval weight gain,"LS strain, larvae on impregnated cotton wool",24 h,1.27 µg
O=Cc1cn(Cc2ccccc2)c2ccc([N+](=O)[O-])cc12,Trypanosoma brucei gambiense,,"trypomastigotes, IL1922",,> 89 µM
O=C(C[n+]1ccc2ccccc2c1)c1ccc2ccc3ccccc3c2c1,Candida albicans,"biofilm formation, XTT",SC5314,"24 h, 37 °C",3.4 µM
CCCCCCC(C)CC1=C(O)C(=O)c2ccccc2C1=O (stereo not drawn),Plasmodium falciparum,"parasite growth, [3H]hypoxanthine incorporation","W2 chloroquine-resistant, human erythrocytes",,0.214 µM
CCCCCOc1c(OC)cc(NC(C)CCCNC(=O)C(N)CCCN)c2nc(C(C)(C)C)ccc12 (stereo not drawn),Staphylococcus aureus,bacterial growth,MRSA ATCC 33591,,> 20 µg/mL
CCCCC[CH2][Hg][S]c1nc(N)nc2[nH]cnc12,Candida albicans,"biofilm formation, XTT",SC5314,"24 h, 37 °C",0.012 µM

# Some of these lines once more:
Molecule,organism,assay,test system,setting,IC50
O=Cc1cn(Cc2cccc(Cl)c2)c2ccc([N+](=O)[O-])cc12,Trypanosoma brucei gambiense,,"trypomastigotes, IL1922",,> 79 µM
Nc1nc(N)nc(NC2CC2)n1,Lucilia cuprina,larval weight gain,"LS strain, larvae on impregnated cotton wool",24 h,1.27 µg
CNC[C@H](O)[C@@H](O)[C@H](O)[C@H](O)CO.[O]=[Sb](=[O])[OH],Leishmania braziliensis,"amastigote growth, microscopic counting",MHOM/BZ/82/M2903,48 h,12.2 ± 2.12 µM
COc1cc(-c2oc3cc(O)cc(O)c3c(=O)c2O)ccc1O,Human immunodeficiency virus 1,viral replication,"TZM-bl, BAL",48 h,1.77 µM
O=c1c(-c2ccc(O)cc2)coc2cc(O)ccc12,Human betaherpesvirus 5,"viral replication, absorbance",human Fibroblast,72 h,> 40 µM
O=C(O)[C@H]1O[C@@H](Oc2cc3oc(-c4ccccc4)cc(=O)c3c(O)c2O)[C@H](O)[C@@H](O)[C@@H]1O,Human betaherpesvirus 5,"viral replication, absorbance",human Fibroblast,72 h,3 µM
NC(=O)c1ncn([C@@H]2O[C@H](CO)[C@@H](O)[C@H]2O)n1,Norwalk virus,"viral replication, inhibitor",RAW264.7,,73.5 µM
O=c1cc(-c2ccc(O)cc2)oc2cc(O)cc(O)c12,human cytomegalovirus,"viral replication, titre reduction","HEL fibroblasts, Towne",,6.4 µM
